Results from different studies.
Each line is one published result; not all experiments were run side by side. Several values in a cell are separate wells, animals, samples, runs or records. ± gives the spread as reported.

SMILES = CCOc1c([C@H](C)n2nc(C)c3c(N)ncnc32)cc(Cl)c(F)c1[C@@H]1CNC(=O)C1; assay = refers to: ΔQTcF > 60 ms; test system = previously treated B-cell malignancy; conditions = oral, dose not given, baseline QTcF ≤450 ms, all doses; quantity = share of patients; value = 1.5%
SMILES = CCN1CCN(Cc2ccc(NC(=O)c3ccc(C)c(NC(=O)c4cncc(-c5cccs5)c4)c3)cc2C(F)(F)F)CC1; test system = C57BL/6 mice, epithelial lining fluid; conditions = intraperitoneal, 20 mg/kg; quantity = Tmax; value = 0.25 h
SMILES = CN1CCN(c2cccc3c2CCN(C(=O)/C=C/c2c(-n4cnnn4)ccc(Cl)c2F)[C@@H]3C(=O)Nc2ccc(C(=O)O)cc2)C(=O)C1; test system = healthy human subjects; conditions = intravenous infusion, 4 mg/h, 2 h; quantity = subjects with headache; value = 0%
SMILES = NC/C(=C\F)COc1cccc(Cn2c(=S)[nH]c(=O)c3[nH]cnc32)c1; test system = dog liver microsomes; conditions = 1 µM, 1 h; quantity = remaining compound; value = 80%
SMILES = COc1cc2nccc(Oc3ccc(NC(=O)c4cc5c(n(-c6ccccc6)c4=O)CCCC5=O)nc3)c2cc1OC; test system = relapsed or refractory AML; conditions = oral, 6 mg once daily; quantity = grade ≥3 Pneumonia patients; value = 33.3%
SMILES = CCO[C@H]1CCN(Cc2c(OC)cc(C)c3[nH]ccc23)[C@H](c2ccc(C(=O)O)cc2)C1; test system = human severe hepatic impairment, plasma; conditions = oral, 200 mg single dose, median; quantity = unbound half-life; value = 21.2 h
SMILES = O=C(Nc1nc2cccc(-c3ccc(CN4CCS(=O)(=O)CC4)cc3)n2n1)C1CC1; assay = refers to: ear and labyrinth disorders; test system = human rheumatoid arthritis patients; conditions = oral, 150 mg once daily, 4 weeks, regardless of relatedness; quantity = treatment-emergent adverse events; value = 0%
SMILES = CC(=O)N(C)[C@H]1CCN(C(=O)c2cnc3c(c2)C[C@](C)(c2ccc(F)cc2)N3)C1; test system = healthy male subjects, multiple rising dose; conditions = oral, 15 mg once daily; quantity = any adverse event; value = 100%
SMILES = CCCn1cc(C)c2c(=O)[nH]c(-c3cc(S(=O)(=O)N4CCN(CC)CC4)ccc3OCC)nc21; test system = human; conditions = concentration not given, treatment-emergent adverse event; quantity = heart rate increased; value = 5.6%
SMILES = Cn1cc(Nc2nccc(-c3ccc4c(c3)CN(C3COC3)CC[C@H]4NC(=O)c3cn(C(C)(C)C)nn3)n2)cn1; test system = human, whole blood; conditions = 50 mg twice daily, day 14; how to read = relative to: pre-dose baseline; quantity = plasmablast count change; value = 1.91%
SMILES = C[C@@H]1COCCN1c1cc(C2([S@](C)(=N)=O)CC2)nc(-c2cc[nH]c3nccc2-3)n1; test system = Japanese advanced solid tumour patients; conditions = oral, 160 mg twice daily, CTCAE grade ≥3; quantity = Nausea incidence; value = 0%
SMILES = C=CCN1CC(=O)N2[C@@H](Cc3ccc(O)cc3F)C(=O)N(Cc3cccc(N4CC(N5CCN(CC)CC5)C4)n3)C[C@@H]2N1C(=O)NCc1ccccc1; test system = advanced solid tumour patients; conditions = 30 mg twice daily, treatment-related, any grade; quantity = patients with ALT increased; value = 0%
SMILES = COc1ccc2c(c1)CN(C(=O)CCN1CCC(Cc3ccccc3)CC1)CC[S@@+]2[O-]; assay = telemetry; test system = conscious dog; conditions = intravenous, 4 mg/kg, 24 h; quantity = heart rate; value = 71 ± 4 beats/min
SMILES = O=C(O)CCC(=O)O.[2H]C([2H])([2H])Oc1cc(C)c2[nH]ccc2c1CN1CC[C@@H](C2CC2)C[C@H]1c1ccc(C(=O)O)cc1; test system = healthy Chinese subjects; conditions = 200 mg, single ascending dose; quantity = TEAE proteinuria; value = 8.3%
SMILES = C[C@H]1O[C@@H](O[C@H]2CC[C@@]3(C)[C@@H](CC[C@]4(C)[C@@H]3C=C[C@]35OC[C@@]6(CCC(C)(C)C[C@H]63)[C@@H](O)C[C@]54C)[C@]2(C)CO)[C@H](O)[C@@H](O[C@@H]2O[C@H](CO)[C@@H](O)[C@H](O)[C@H]2O)[C@H]1O; assay = UHPLC-MS/MS; test system = mouse, plasma; conditions = oral, 50 mg/kg, 0.5 h, pooled samples; quantity = plasma concentration; value = 68.5 ng/mL and 58.4 ng/mL
SMILES = Cc1ccc(-c2cc(C(F)(F)F)nn2-c2ccc(S(N)(=O)=O)cc2)cc1; test system = rat, stomach; conditions = concentration not given, 4 h; quantity = ulcer number; value = 4
SMILES = CC(C)C[C@H](NC(=O)[C@H](CC(C)C)NC(=O)[C@H](Cc1c[nH]c2ccccc12)NC(=O)[C@H](CCC(=O)O)NC(=O)[C@@H](NC(=O)[C@H](Cc1ccccc1)NC(=O)[C@H](CCC(=O)O)NC(=O)[C@H](CCCCNC(=O)COCCOCCNC(=O)COCCOCCNC(=O)CC[C@H](NC(=O)CCCCCCCCCCCCCCCCCCC(=O)O)C(=O)O)NC(=O)[C@H](C)NC(=O)[C@H](CCCCN)NC(=O)[C@H](CCCCN)NC(=O)[C@H](CCC(=O)O)NC(=O)[C@H](CC(=O)O)NC(=O)[C@H](CC(C)C)NC(=O)[C@H](Cc1ccc(O)cc1)NC(=O)[C@H](CCCCN)NC(=O)[C@H](CO)NC(=O)[C@H](Cc1ccc(O)cc1)NC(=O)[C@H](CC(=O)O)NC(=O)[C@H](CO)NC(=O)[C@@H](NC(=O)[C@H](Cc1ccccc1)NC(=O)[C@@H](NC(=O)CNC(=O)[C@H](CCC(N)=O)NC(=O)C(C)(C)NC(=O)[C@@H](N)Cc1c[nH]cn1)[C@@H](C)O)[C@@H](C)O)C(C)C)C(=O)N[C@@H](CCC(=O)O)C(=O)NCC(=O)NCC(=O)N1CCC[C@H]1C(=O)N[C@@H](CO)C(=O)N[C@@H](CO)C(=O)NCC(N)=O; test system = human, plasma; conditions = subcutaneous, 16 mg once weekly, week 20, geometric mean; quantity = Cmax,ss; value = 5430 ng/mL
SMILES = C[C@H]1C=C(Cc2ccccc2)C(=O)O1; test system = Staffordshire loam sediment, aerobic dark; conditions = 20 °C; quantity = DT50 water; value = 7.82 days
SMILES = C[C@@H](Oc1ccc(S(C)(=O)=O)cc1C(=O)N1C[C@@H]2C[C@]2(c2cc(C(F)(F)F)on2)C1)C(F)(F)F; test system = elderly humans, plasma; conditions = 50 mg once daily, multiple dose, geometric mean; quantity = CL/F at steady state; value = 117 mL/min
SMILES = Cc1cccc(CNC(=O)c2cn(CCNC(=O)c3ccccc3S)c3cc4c(cc3c2=O)OC(F)(F)O4)n1; test system = Sprague-Dawley rat, male, plasma; conditions = intravenous, 20 mg/kg of parent drug; quantity = AUC(0-t); value = 1490 ± 125 ng·h/mL
SMILES = Cc1nc2ccc(OCc3ccc(C(F)(F)F)cc3)cc2[nH]1; test system = Balb/c mouse, male, kidney; conditions = intravenous, 1 mg/kg, 3 h; how to read = relative to: tissue over plasma; quantity = tissue/plasma ratio; value = 8.4 ± 1.2
SMILES = Cc1ccc([C@@H]2O[C@H](CO)[C@@H](O)[C@H](O)[C@H]2O)cc1Cc1ccc(-c2ccc(F)cc2)s1; test system = Japanese type 2 diabetes patients; conditions = 400 mg, day 5, 24 h urine collection; how to read = relative to: baseline; quantity = urinary potassium excretion change; value = -2.98 mEq
SMILES = CCCCC1=NC2(CCCC2)C(=O)N1Cc1ccc(-c2ccccc2S(=O)(=O)Nc2noc(C)c2C)c(COCC)c1; test system = healthy adult volunteers, plasma; conditions = oral, 200 mg, 14 days repeated dosing, fasted, crushed tablet; quantity = Tmax; value = 2.5 h
SMILES = Cc1cc(NC2CCN(C(=O)OC3CCN(C(=O)/C=C/CN(C)C)C3)CC2)n2ncc(C(C)C)c2n1 (stereo not shown); assay = Phase I dose escalation CTCAE v4.0, refers to: AST increased; test system = patients with advanced solid tumours; conditions = dose not given, QD dosing grade 3 or higher; quantity = patients with adverse event; value = 0%
SMILES = CCN1CCN(C(=O)c2ccc(-n3nc(-c4cccnc4)c4c3-c3sc(NC(C)=O)nc3CC4)cc2)CC1; test system = NSG mice; conditions = dose not given, day 4; quantity = body weight; value = 15 g and 19 g and 18.8 g and 18.7 g
SMILES = CC(C(=O)NCC(=O)NCC(CNC(=O)CNC(=O)C(C)N1CCN(CC(=O)[O-])CCN(CC(=O)[O-])CCN(CC(=O)[O-])CC1)(CNC(=O)CNC(=O)C(C)N1CCN(CC(=O)[O-])CCN(CC(=O)[O-])CCN(CC(=O)[O-])CC1)CNC(=O)CNC(=O)C(C)N1CCN(CC(=O)[O-])CCN(CC(=O)[O-])CCN(CC(=O)[O-])CC1)N1CCN(CC(=O)[O-])CCN(CC(=O)[O-])CCN(CC(=O)[O-])CC1.[Gd+3].[Gd+3].[Gd+3].[Gd+3] (stereo not shown); test system = cynomolgus monkey; conditions = IV bolus, within 24 h; quantity = dose eliminated from plasma; value = > 99%
SMILES = OC[C@H]1O[C@@H](c2ccc(Cl)c(Cc3ccc(O[C@H]4CCOC4)cc3)c2)[C@H](O)[C@@H](O)[C@@H]1O; test system = Japanese type 1 diabetes patients, blood; conditions = 25 mg, day 28; how to read = relative to: baseline; quantity = change in Magnesium; value = 0.1 mEq/L
SMILES = C=CC(=O)Nc1cc(Nc2nccc(-c3cn(C)c4ccccc34)n2)c(OC)cc1N(C)CCN(C)C; assay = storage stability; test system = human plasma samples; conditions = 30 d, -80 °C, HQC level; how to read = relative to: nominal concentration; quantity = percentage recovery; value = 13.4%
SMILES = CNC(=O)c1cc(Cl)c(OC(C)(C)C(=O)O)cc1OC[C@@H](O)CN1CCC2(CC1)Cc1cc(Cl)ccc1O2; assay = equilibrium dialysis; test system = rat, lung homogenate; quantity = fraction unbound; value = 0.056
SMILES = COc1ccc(C[C@@H](C)[C@@H](C)Cc2ccc(OC)c(OC)c2)cc1OC; test system = beagle dog female, plasma; conditions = oral, 1000 mg/kg/day, day 1; quantity = AUC(0-t); value = 24800 ± 15300 ng·h/mL
SMILES = Cc1cc(-c2nccc3c2ccn3CC(=O)Nc2ccc(-c3cnccn3)cn2)ccn1; test system = human; conditions = 15 mg once daily, multiple ascending dose; quantity = subjects with Erythema adverse event; value = 11.1%
SMILES = O=C1CC[C@H](N2Cc3cc(N4CCN(CC5CCN(c6ccc([C@@H]7c8ccc(O)cc8CC[C@@H]7c7ccccc7)cc6)CC5)CC4)ccc3C2=O)C(=O)N1; test system = human; conditions = oral, 200 mg, with: rosuvastatin 10 mg; quantity = participants with TEAE headache; value = 8.3%
SMILES = N#Cc1ccc2c(c1)[C@H]1CCCN(C(=O)c3ccc4[nH]cnc4c3)[C@H]1C2; test system = human; conditions = 20 mg, day 15; how to read = relative to: baseline; quantity = cortisol level change; value = -141 nmol/L
SMILES = O=C(COc1ccc(Cl)cc1)NC12CC(c3nnc([C@H]4C[C@@H](OC(F)(F)F)C4)o3)(C1)C2; test system = human both sexes; conditions = oral, 45 mg once daily, 14 days; quantity = participants with TEAE; value = 100%
SMILES = CNCc1ccc(-c2[nH]c3cc(F)cc4c3c2CCNC4=O)cc1; test system = patients; conditions = oral, 600 mg twice daily, all grades; quantity = any adverse event incidence; value = 100%
SMILES = CC(C)(C(=O)N1CCOc2c(C#N)cncc2C1)C(F)F; assay = refers to: renal and urinary disorders; test system = human, both sexes; conditions = oral, 20 mg once daily, 14 days, multiple ascending dose; quantity = subjects with TEAE; value = 0%
SMILES = Cc1cnc(Nc2ccc(OCCN3CCCC3)cc2)nc1Nc1cccc(S(=O)(=O)NC(C)(C)C)c1; test system = BALB/c mice, rhEPO-induced polycythemia; conditions = 120 mg/kg, day 5; quantity = body weight; value = 18.6 g and 18.8 g and 17.6 g and 20.1 g
SMILES = Cc1cc(C)cc(C(=O)c2c(C(C)C)c(=O)[nH]c(=O)n2Cc2ccnc(N)c2)c1; test system = male Sprague-Dawley rat, plasma; conditions = intravenous, 20 mg/kg; quantity = AUMC; value = 0.659 ± 0.195 µg·h²/mL
SMILES = N#CN1C[C@H](n2nc(-c3ccc(Oc4ccc(Cl)cn4)cc3)c(C(N)=O)c2N)CCC12CC2; test system = human, fasted, plasma; conditions = oral, 600 mg; quantity = AUC(0-24h); value = 12300 ± 4320 ng·h/mL
SMILES = Cc1c(C(=O)O)ccc2c3n(nc12)[C@@H]1[C@H](C3)N(CC2CC2)[C@@]2(C(=O)Nc3cc(Cl)ccc32)[C@H]1c1cccc(Cl)c1F; test system = female BALB/c nude mice, SJSA-1 xenograft, plasma; conditions = oral, 2 mg/kg once daily, 24 h; quantity = plasma concentration; value = 722 nM
SMILES = Cc1cc(Nc2ccc(S(F)(F)(F)(F)F)cc2)n2nc(C(C)(F)F)nc2n1; test system = Plasmodium falciparum malaria patients; conditions = oral, 400 mg; quantity = adverse event Fatigue; value = 0%
SMILES = COc1ccnc(C(=O)N[C@H]2COC(=O)[C@H](Cc3ccccc3)[C@@H](O)[C@H](C)OC2=O)c1O; assay = aerobic dark soil incubation; test system = sandy loam soil; conditions = 20 °C, persistence endpoint; quantity = DT50; value = 18.9 days
SMILES = CCOc1c([C@H](C)n2nc(C)c3c(N)ncnc32)cc(Cl)c(F)c1[C@@H]1CNC(=O)C1; test system = rat plasma; conditions = 1600 ng/mL, 4 h, 10 °C, autosampler; how to read = relative to: nominal concentration; quantity = stability relative error; value = 14.7%
